{"data": "Measured values collected from several papers", "note": "Lines come from different studies, so protocols differ. Numbers after ± are the reported error."}
{"Structure (SMILES)": "CCn1ncc2c1-c1cnc(N)c(c1)O[C@H](C)c1cc(F)ccc1-c1nn(C)nc1C2", "system": "female Balb/c nude mouse", "setting": "3 mg/kg twice daily, 1 h, steady state", "endpoint": "unbound brain concentration", "value": "18 ± 2 nM"}
{"Structure (SMILES)": "CN1CCN(C(=O)[C@H](CCCN[C@@H]2C[C@H]2c2ccc(F)cc2)NC(=O)c2ccc(-n3ccnn3)cc2)CC1", "system": "NOD/SCID mouse MV4-11 xenograft, plasma", "setting": "oral, 7.5 mg/kg/day, 24 h", "endpoint": "unbound plasma concentration", "value": "1.1 ng/mL"}
{"Structure (SMILES)": "COc1cc2c(Nc3ccc(Cl)c(Cl)c3F)ncnc2cc1OC[C@@H]1C[C@@H]2CN(C)C[C@@H]2C1", "system": "FVB wild-type mouse", "setting": "oral, 70 mg/kg, 2 h", "endpoint": "unbound brain concentration", "value": "0.78 ng/g"}
{"Structure (SMILES)": "NS(=O)(=O)c1nnc(NC(=O)CCC2CC3CCC2C3)s1 (stereo not drawn)", "system": "mouse, plasma", "endpoint": "unbound fraction", "value": 0.06}
{"Structure (SMILES)": "CCn1ncc2c1-c1cnc(N)c(c1)O[C@H](C)c1cc(F)ccc1-c1nn(C)nc1C2", "system": "Balb/c nude mouse, female, PDX, plasma", "setting": "po, 5 mg/kg BID, 1 h, 5 days dosing", "endpoint": "unbound concentration", "value": "500 ± 15 nM"}
{"Structure (SMILES)": "Cc1ccc(CCC(=O)Nc2nnc(S(N)(=O)=O)s2)cc1", "system": "BALB/c mouse, male, plasma", "setting": "oral, 20 mg/kg, 6 h", "endpoint": "unbound plasma concentration", "value": "0.016 ng/mL"}
{"Structure (SMILES)": "C=CC(=O)N1CC2(CCN(c3nc4c(c(-c5cc(O)cc6ccccc56)c3C#N)COC(C)(C)C4)C2)C1", "system": "mouse, plasma", "setting": "oral, 5 mg/kg", "endpoint": "unbound AUC", "value": "0.013 µM·h"}
{"Structure (SMILES)": "C[C@@H](N)COc1ccc(-c2cnc3ccc(N[C@H](C)c4cccc(F)c4)nn23)cc1", "system": "female Balb/c nude mouse", "setting": "100 mg/kg once daily, 12 h (tau/2), steady state", "endpoint": "unbound brain concentration", "value": "63 ± 20 nM"}
{"Structure (SMILES)": "Cc1c(C(=O)O)ccc2c3n(nc12)[C@@H]1[C@H](C3)N(CC2CC2)[C@@]2(C(=O)Nc3cc(Cl)ccc32)[C@H]1c1cccc(Cl)c1F", "test": "equilibrium dialysis", "system": "BomTac:NMRI-Foxn1nu mouse, female, plasma", "setting": "pH 7.4", "endpoint": "unbound fraction", "value": 0.004}
{"note": "Repeated from above:"}
{"Structure (SMILES)": "CCn1ncc2c1-c1cnc(N)c(c1)O[C@H](C)c1cc(F)ccc1-c1nn(C)nc1C2", "system": "female Balb/c nude mouse", "setting": "3 mg/kg twice daily, 1 h, steady state", "endpoint": "unbound brain concentration", "value": "18 ± 2 nM"}
